Measured values from different studies.
Each line is one published result; not all experiments were run side by side. Numbers after ± are the reported error.
CYP2D6: Cytochrome P450 2D6 (CYP2D6, Homo sapiens, UniProt P10635)
Sequence of UniProt P10635 (whole entry, looked up): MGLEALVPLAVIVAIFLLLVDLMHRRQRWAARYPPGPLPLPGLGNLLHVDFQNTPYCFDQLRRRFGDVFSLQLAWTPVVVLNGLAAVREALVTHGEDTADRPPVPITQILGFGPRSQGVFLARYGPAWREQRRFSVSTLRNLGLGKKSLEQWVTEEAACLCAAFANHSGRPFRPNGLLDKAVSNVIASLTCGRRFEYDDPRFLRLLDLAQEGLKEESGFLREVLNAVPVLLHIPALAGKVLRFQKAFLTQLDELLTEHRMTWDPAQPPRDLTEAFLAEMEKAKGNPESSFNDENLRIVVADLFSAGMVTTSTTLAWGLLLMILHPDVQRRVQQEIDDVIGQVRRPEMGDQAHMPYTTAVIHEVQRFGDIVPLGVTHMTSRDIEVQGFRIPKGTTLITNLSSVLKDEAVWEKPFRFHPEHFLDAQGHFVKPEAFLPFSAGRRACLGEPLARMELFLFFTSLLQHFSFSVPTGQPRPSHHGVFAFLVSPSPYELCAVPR
CYP1B1: Cytochrome P450 1B1 (CYP1B1, Homo sapiens, UniProt Q16678)
Sequence of UniProt Q16678 (whole entry, looked up): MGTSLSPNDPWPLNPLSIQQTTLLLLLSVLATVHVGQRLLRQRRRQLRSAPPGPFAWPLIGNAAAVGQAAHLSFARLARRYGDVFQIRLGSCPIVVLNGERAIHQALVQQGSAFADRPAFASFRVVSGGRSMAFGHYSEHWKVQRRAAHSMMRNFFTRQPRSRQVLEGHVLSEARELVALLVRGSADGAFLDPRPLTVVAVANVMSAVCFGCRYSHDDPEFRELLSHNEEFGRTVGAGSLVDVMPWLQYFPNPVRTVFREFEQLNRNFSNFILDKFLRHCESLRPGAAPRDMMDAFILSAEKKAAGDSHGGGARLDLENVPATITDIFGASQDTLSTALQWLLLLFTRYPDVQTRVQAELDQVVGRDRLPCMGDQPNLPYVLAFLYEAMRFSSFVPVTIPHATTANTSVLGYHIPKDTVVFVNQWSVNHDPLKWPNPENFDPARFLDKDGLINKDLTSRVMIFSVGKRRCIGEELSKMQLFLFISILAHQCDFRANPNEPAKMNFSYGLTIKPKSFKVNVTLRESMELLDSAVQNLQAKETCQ
Ahr: Aryl hydrocarbon receptor (Ahr, Mus musculus, UniProt P30561)
Sequence of UniProt P30561 (whole entry, looked up): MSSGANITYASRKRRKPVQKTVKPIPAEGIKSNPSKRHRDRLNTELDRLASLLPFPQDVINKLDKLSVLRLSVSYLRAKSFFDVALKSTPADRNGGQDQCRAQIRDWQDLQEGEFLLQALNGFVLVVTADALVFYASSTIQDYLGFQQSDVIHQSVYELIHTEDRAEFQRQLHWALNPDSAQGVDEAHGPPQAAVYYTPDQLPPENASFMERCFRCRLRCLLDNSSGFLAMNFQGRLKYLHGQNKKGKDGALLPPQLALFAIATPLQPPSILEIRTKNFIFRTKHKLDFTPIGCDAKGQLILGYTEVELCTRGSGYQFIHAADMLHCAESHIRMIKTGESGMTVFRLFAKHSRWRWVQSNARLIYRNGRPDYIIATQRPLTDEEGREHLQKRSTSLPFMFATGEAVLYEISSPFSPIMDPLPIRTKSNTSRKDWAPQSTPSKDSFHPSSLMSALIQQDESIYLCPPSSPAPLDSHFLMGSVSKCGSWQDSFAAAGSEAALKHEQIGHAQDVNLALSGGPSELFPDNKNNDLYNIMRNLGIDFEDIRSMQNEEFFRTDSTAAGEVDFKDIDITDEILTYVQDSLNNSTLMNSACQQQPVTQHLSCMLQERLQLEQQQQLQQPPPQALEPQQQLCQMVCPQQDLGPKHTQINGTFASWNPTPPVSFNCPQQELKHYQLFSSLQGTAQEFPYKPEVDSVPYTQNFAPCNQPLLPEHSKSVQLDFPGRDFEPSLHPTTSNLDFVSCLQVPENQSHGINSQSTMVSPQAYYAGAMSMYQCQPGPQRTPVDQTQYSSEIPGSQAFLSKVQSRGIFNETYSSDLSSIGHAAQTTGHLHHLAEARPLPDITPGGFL
CYP2E1: Cytochrome P450 2E1 (CYP2E1, Homo sapiens, UniProt P05181)
Sequence of UniProt P05181 (whole entry, looked up): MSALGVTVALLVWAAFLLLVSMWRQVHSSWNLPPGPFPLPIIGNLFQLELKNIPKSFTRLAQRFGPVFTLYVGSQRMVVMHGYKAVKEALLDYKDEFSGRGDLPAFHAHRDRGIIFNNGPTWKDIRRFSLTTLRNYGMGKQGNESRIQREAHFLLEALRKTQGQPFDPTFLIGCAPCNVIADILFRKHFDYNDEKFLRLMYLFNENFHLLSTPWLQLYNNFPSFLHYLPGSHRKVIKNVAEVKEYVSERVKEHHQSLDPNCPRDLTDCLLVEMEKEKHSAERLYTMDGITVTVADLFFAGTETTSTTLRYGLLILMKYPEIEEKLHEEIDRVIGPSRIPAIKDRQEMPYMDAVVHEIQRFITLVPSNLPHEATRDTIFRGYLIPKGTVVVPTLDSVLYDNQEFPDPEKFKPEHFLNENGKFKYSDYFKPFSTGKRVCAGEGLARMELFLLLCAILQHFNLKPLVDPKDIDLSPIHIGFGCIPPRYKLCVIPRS
Sequence of UniProt P05981 (whole entry, looked up): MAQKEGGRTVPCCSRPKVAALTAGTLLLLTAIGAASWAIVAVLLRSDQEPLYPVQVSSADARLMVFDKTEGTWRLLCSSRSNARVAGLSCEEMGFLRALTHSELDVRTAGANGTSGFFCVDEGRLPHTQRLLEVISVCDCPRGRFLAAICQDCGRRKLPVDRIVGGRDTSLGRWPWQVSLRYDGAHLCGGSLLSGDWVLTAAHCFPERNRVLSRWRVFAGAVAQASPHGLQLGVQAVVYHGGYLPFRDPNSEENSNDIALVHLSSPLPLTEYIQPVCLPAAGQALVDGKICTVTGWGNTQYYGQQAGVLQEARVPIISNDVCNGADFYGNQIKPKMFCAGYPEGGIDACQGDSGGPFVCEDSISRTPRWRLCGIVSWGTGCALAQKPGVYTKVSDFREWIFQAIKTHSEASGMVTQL
Sequence of UniProt P47936 (whole entry, looked up): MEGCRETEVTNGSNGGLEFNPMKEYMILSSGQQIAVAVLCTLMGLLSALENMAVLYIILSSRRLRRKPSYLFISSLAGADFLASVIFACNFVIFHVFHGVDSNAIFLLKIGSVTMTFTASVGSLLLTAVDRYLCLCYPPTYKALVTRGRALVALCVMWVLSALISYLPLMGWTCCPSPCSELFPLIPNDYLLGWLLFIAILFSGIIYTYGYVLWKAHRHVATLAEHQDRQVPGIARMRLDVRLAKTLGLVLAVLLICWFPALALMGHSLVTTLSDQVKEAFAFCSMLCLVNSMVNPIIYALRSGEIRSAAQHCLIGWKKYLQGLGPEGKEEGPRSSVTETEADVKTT
Sequence of UniProt P06873 (whole entry, looked up): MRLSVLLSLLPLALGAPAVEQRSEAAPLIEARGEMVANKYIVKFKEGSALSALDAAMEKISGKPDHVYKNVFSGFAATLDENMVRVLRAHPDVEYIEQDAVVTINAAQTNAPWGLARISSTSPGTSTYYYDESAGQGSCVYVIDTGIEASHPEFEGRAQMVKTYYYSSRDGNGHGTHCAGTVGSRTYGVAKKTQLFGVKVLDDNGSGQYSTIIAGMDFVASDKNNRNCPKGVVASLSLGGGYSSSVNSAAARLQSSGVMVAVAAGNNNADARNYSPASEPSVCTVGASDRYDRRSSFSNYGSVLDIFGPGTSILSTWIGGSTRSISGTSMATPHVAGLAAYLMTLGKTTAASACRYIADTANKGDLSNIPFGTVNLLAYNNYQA
Sequence of UniProt P20813 (whole entry, looked up): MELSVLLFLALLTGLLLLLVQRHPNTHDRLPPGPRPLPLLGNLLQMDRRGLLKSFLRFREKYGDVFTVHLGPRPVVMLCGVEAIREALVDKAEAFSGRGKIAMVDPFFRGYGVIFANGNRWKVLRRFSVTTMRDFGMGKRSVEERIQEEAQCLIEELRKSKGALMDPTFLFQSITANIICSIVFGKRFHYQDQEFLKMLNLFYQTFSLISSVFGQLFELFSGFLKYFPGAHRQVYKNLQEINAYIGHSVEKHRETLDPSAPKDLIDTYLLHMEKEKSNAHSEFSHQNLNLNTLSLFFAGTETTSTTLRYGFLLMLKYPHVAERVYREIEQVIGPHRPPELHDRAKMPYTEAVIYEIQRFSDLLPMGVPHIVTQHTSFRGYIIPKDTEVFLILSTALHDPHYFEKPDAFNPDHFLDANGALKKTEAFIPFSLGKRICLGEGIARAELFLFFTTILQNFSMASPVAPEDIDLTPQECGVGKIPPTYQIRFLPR
Sequence of UniProt P05177 (whole entry, looked up): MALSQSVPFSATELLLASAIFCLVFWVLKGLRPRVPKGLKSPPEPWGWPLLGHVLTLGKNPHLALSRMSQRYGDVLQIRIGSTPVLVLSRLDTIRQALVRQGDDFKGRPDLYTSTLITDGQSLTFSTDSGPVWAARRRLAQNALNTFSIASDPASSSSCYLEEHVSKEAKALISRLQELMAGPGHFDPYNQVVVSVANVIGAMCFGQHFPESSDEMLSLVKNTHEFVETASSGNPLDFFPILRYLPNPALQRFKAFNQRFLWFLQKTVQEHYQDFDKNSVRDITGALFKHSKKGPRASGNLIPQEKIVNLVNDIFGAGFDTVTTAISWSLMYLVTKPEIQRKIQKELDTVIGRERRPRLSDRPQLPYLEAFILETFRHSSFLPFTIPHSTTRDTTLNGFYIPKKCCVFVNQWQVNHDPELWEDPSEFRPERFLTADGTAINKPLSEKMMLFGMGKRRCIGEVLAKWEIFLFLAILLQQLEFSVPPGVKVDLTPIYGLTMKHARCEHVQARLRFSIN
Sequence of UniProt P07099 (whole entry, looked up): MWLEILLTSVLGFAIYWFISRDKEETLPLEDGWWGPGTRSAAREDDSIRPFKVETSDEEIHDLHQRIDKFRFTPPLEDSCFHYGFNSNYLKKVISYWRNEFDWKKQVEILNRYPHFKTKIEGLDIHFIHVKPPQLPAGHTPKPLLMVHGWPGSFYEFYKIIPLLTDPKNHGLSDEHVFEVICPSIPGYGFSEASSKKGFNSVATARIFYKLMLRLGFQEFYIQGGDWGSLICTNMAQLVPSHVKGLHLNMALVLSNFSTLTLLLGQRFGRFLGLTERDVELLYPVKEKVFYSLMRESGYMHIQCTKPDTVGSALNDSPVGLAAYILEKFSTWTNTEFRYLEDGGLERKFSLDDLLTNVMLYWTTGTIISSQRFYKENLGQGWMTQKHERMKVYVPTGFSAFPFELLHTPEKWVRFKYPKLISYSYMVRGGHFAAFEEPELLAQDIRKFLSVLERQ

CNC(=O)Oc1cc(C)c(SC)c(C)c1
inhibition (CYP2D6; inhibitor; human liver microsomes; 2 µM, pH 7.4, together with: dextromethorphan): < 0%

C#CCOCCc1cccc2ccccc12
Kd (CYP1B1; reverse type I spectral binding; pH 7.4): 88000 ± 18000 nM

CCCSc1ccc2nc(NC(=O)OC)[nH]c2c1
inhibition (CYP2D6; inhibitor; human liver microsomes; 10 µM, pH 7.4, together with: dextromethorphan): < 0%

C#CCOCc1cccc2ccccc12
Kd (CYP1B1; reverse type I spectral binding; pH 7.4): 92000 ± 10000 nM

Clc1cc(-c2cc(Cl)c(Cl)c(Cl)c2)cc(Cl)c1Cl
Ki (Ahr; binding, competitor; in vitro expressed receptor, together with: [3H]TCDD): 33 nM

C#CCOc1ccc(-c2ccccc2)cc1
Kd (CYP1B1; reverse type I spectral binding; pH 7.4): 83000 ± 26000 nM

Cc1sc(=NC(=O)C2C(C)(C)C2(C)C)n(CCO[11CH3])c1C
brain distribution (Cannabinoid receptor 2 (Cnr2, Mus musculus, UniProt P47936); CD1 mouse, control, brain regions; 60 min, radiolabelled compound): ~0.3 %ID/g tissue

OC[C@H](O)c1ccccc1
residual activity (CYP2E1; enzyme activity, inhibitor; human liver microsomes; concentration not given, at high concentration): 26%

C[C@]12CC[C@@H]3c4ccc(OS(=O)(=O)O)cc4CC[C@H]3[C@@H]1CCC2=O
cellular uptake (Solute carrier organic anion transporter family member 2B1 (SLCO2B1, Homo sapiens, UniProt O94956); substrate; HEK293 overexpressing OATP2B1; relative to: vector control): increased

CC(C)(O)c1ccccc1CC[C@@H](SCC1(CC(=O)O)CC1)c1cccc(/C=C/c2ccc3ccc(Cl)cc3n2)c1
inhibition (CYP2D6; inhibitor; human liver microsomes; 10 µM, pH 7.4, together with: dextromethorphan): < 0%

Oc1ccc(/C=C/c2cc(O)cc(O)c2)cc1
Km (UGT1A9 human; 4'-O-glucuronide formation, substrate; pH 7.4): 792 ± 240 µM

Clc1ccc(-c2cc(Cl)c(Cl)c(Cl)c2)cc1
EC50 (Ahr; reporter gene, agonist; Hepa-1c1c7; 24 h): 32 ± 17.7 nM

CCC[S+]([O-])c1ccc2[nH]c(NC(=O)OC)nc2c1 (centres unmarked)
inhibition (Cytochrome P450 1A2 (CYP1A2, Homo sapiens, UniProt P05177); inhibitor; human liver microsomes; 2 µM, pH 7.4, together with: phenacetin): 3.17%

CC(C)C=Cc1c(O)cc(/C=C/c2ccc(O)c(O)c2)cc1O
Km (UGT1A7 human; 4'-O-glucuronide formation, substrate; pH 7.4): 52.9 ± 3.2 µM

C1CO1
Km (Epoxide hydrolase 1 (EPHX1, Homo sapiens, UniProt P07099); enzyme activity, substrate): 12700 µM

CCCC[C@@H]1NC(=O)[C@H](C(C)C)NC(=O)[C@H](Cc2c[nH]cn2)NC(=O)[C@H]([C@@H](C)CC)NC(=O)[C@H](CC(=O)O)NC(=O)[C@@H](NC(=O)C[C@H](CC(N)=O)NC(=O)[C@@H]2CCCN2C(=O)C[C@H](CCC(=O)O)NC(=O)[C@@H](N)C(C)C)CSSC[C@@H](C(=O)N[C@@H](Cc2ccccc2)C(=O)N[C@H]2CNC[C@@H]2C(=O)N[C@@H](CCCNC(=N)N)C(=O)N[C@H](CC(N)=O)CC(C)C)NC(=O)[C@H](CCC(=O)O)NC(=O)[C@H](Cc2c[nH]c3ccccc23)NC(=O)C[C@H](CCC(=O)O)NC(=O)[C@H](Cc2c[nH]c3ccccc23)NC1=O
half-life (Proteinase K (PROK, Engyodontium album, UniProt P06873); proteolytic stability; TBS; 50 µM, pH 7.5, 5% DMSO, together with: proteinase K 10 µg/mL): 24 min

O=Cc1c(Cc2c[nH]c3ccccc23)[nH]c2ccccc12
EC50 (Aryl hydrocarbon receptor (AHR, Homo sapiens, UniProt P35869)): 11 nM

Clc1ccc(-c2cc(Cl)c(Cl)c(Cl)c2)cc1Cl
EC50 (Ahr; reporter gene, agonist; Hepa-1c1c7; 24 h): 4.7 ± 3.2 nM

O=[N+]([O-])c1ccc(O)cc1
hydroxylation rate (CYP2E1; substrate; pooled human liver microsomes; 250 µM, pH 7.4, added enzyme to P450 molar ratio 0.96): 8.5 ± 1.4 min⁻¹

O=S(=O)(O)Oc1ccc(-c2ccc(Cl)cc2Cl)cc1Cl
Km (sulfatase, human liver microsomes; substrate; pH 7.4, 37 °C): 27.9 ± 4.7 µM

CC[N+]1=C(C=CC=CC=C2N(CCCCCC(=O)NCCN3C(=O)CC(SC[C@@H](NC(=O)[C@@H](CCCNC(=N)N)NC(=O)[C@@H](CCCNC(=N)N)NC(=O)[C@@H](CCCNC(=N)N)NC(=O)[C@@H](CCCNC(=N)N)NC(=O)[C@@H](CCCNC(=N)N)NC(=O)[C@@H](CCCNC(=N)N)NC(=O)[C@@H](CCCNC(=N)N)NC(=O)[C@@H](CCCNC(=N)N)NC(=O)[C@@H](CCCNC(=N)N)NC(=O)[C@H](CC(C)C)NC(=O)[C@H](CCCCN)NC(=O)[C@H](CC(C)C)NC(=O)[C@H](CCC(N)=O)NC(=O)[C@H](CC(C)C)NC(=O)[C@H](CCCNC(=N)N)NC(=O)CCCCCNC(=O)[C@@H](CCC(=O)O)NC(=O)[C@@H](CCC(=O)O)NC(=O)[C@@H](CCC(=O)O)NC(=O)[C@@H](CCC(=O)O)NC(=O)[C@@H](CCC(=O)O)NC(=O)[C@@H](CCC(=O)O)NC(=O)[C@@H](CCC(=O)O)NC(=O)[C@@H](CCC(=O)O)NC(=O)[C@H](N)CCC(=O)O)C(N)=O)C3=O)c3ccc(S(=O)(=O)O)cc3C2(C)C)C(C)(C)c2cc(S(=O)(=O)[O-])ccc21 (some centres unmarked)
cleavage (Serine protease hepsin (HPN, Homo sapiens, UniProt P05981); substrate cleavage, substrate, Tricine gel; 5 µM, together with: enzyme 50 nM): < 3%

Clc1ccc(-c2cc(Cl)c(Cl)cc2Cl)cc1Cl
Ki (Ahr; binding, competitor; in vitro expressed receptor, together with: [3H]TCDD): 3190 nM

O=C1Nc2ccc(Cl)cc2[C@@](C#CC2CC2)(C(F)(F)F)O1
AUC(0-t) (Cytochrome P450 2B6 (CYP2B6, Homo sapiens, UniProt P20813); healthy human, plasma; oral, 50 mg, together with: midazolam 2 mg, no ritlecitinib): 5560 ng·h/mL

For quick reference, copied from above:
O=C1Nc2ccc(Cl)cc2[C@@](C#CC2CC2)(C(F)(F)F)O1
AUC(0-t) (Cytochrome P450 2B6 (CYP2B6, Homo sapiens, UniProt P20813); healthy human, plasma; oral, 50 mg, together with: midazolam 2 mg, no ritlecitinib): 5560 ng·h/mL

C[C@]12CC[C@@H]3c4ccc(OS(=O)(=O)O)cc4CC[C@H]3[C@@H]1CCC2=O
cellular uptake (Solute carrier organic anion transporter family member 2B1 (SLCO2B1, Homo sapiens, UniProt O94956); substrate; HEK293 overexpressing OATP2B1; relative to: vector control): increased

Clc1ccc(-c2cc(Cl)c(Cl)cc2Cl)cc1Cl
Ki (Ahr; binding, competitor; in vitro expressed receptor, together with: [3H]TCDD): 3190 nM
